Assay results gathered from unrelated publications.
A part holds a random share of what one study measured.

Set 1 — technique: protein-binding microarray; molecule type: double-stranded DNA, one strand shown; matrix: in vitro; tested at: 940 nM top; setting: 60-bp whole probe; added: salmon DNA 0.4 mg/ml; baseline: random background probes; direction: higher = stronger binding; quantity: fitted relative affinity; all sequences stand within: GCCTAGCAC … GTCTTGATTCGCTTGACGCTGCTG
Target: Interferon regulatory factor 5, full length, phosphomimetic (IRF5, Homo sapiens, UniProt Q13568-2, residues 1-514, S451D/S453D/S456D/S462D)
TTAGTTATCAGTCTCGATTAGTGCTAG: 3.09 z-score
ATGCCTTTCTCTTGGAGCTTGTGCTAG: 0.669 z-score
GACGTACTGGGTATCGGGACGTGCTAG: 0.683 z-score
TTATGTTTCGGTTTCGGTTAGTGCTAG: 11.6 z-score
TCAATTCGTCATTTCACACTGTGCTAG: 0.803 z-score
TCATTTATGCACTCTTTAACTGTGCTA: 0.68 z-score
TCAAGTTTCTCAACCACACTGTGCTAG: 1.27 z-score
TTAGGTTTCGCCTTTCGGTTAGTGCTA: 8.92 z-score
TTAGATATCCGGACTGGATTAGTGCTA: -0.494 z-score
TTAGGACTGGATATCGGTTAGTGCTAG: -0.205 z-score
GACAGTATCGACTATCGGGACGTGCTA: 5.01 z-score
CAGGAAATCAACTTTTTTTAAGTGCTA: 0.0588 z-score
CTAGATTTCAGTTTCGATTAGTGCTAG: 9.39 z-score
TCAGTTGTAGTTTTCATACTGTGCTAG: 0.409 z-score
TTAGAAATCGGGTATCGATTAGTGCTA: 3.24 z-score
GACGAACTGGACACTGGGGACGTGCTA: -0.398 z-score
GACGGTTCCGGTTGCGGGACGTGCTAG: 2.41 z-score
TCAGGTCTGGGTATTTTACTGTGCTAG: -0.5 z-score
TCACCAATGGTCTTTCCAACTGTGCTA: 0.0416 z-score

Set 2 — technique: protein-binding microarray; molecule type: double-stranded DNA, one strand shown; matrix: in vitro; tested at: not given; direction: higher = stronger binding; quantity: E-score
Target: Protein C-ets-1 (ETS1, Homo sapiens, UniProt P14921, residues 1-441, Y397A, full length assumed)
Setting: k-mer, scored over probes, only values ≥0.25
Construct (chain): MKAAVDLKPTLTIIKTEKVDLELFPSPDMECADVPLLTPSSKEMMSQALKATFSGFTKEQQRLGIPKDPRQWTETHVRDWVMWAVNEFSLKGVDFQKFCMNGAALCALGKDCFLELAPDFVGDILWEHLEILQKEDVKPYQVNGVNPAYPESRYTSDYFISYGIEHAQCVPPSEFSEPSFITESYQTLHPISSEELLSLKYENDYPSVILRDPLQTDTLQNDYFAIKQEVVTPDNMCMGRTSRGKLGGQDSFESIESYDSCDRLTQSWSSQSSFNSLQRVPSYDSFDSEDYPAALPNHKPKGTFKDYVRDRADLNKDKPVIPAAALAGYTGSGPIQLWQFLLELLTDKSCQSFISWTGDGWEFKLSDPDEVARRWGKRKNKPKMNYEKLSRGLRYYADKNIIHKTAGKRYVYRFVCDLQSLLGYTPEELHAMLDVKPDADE
AGTTTTGC: 0.283
AACTTCCA: 0.253
CGTGACAA: 0.315
ATCCCCAC: 0.282
CCAATTTA: 0.252
ACTACGGA: 0.28
GCACATCC: 0.295
TGTGCCAA: 0.32
AAACACAC: 0.279
CGACGAAA: 0.277
CCACATCC: 0.271
TGTGGCAA: 0.256
CGCCAAAC: 0.392
TCGTGACA: 0.307
GGCAACGA: 0.279
AGCGGAAG: 0.351
CATTGTCA: 0.341
ATTGCAAA: 0.269
GACCGACA: 0.256
GTTGTCAA: 0.286
TGGCACAA: 0.268
TAGCAAAA: 0.264
CTGTACAG: 0.266
GGGTGCAA: 0.289
CTTCCGAC: 0.332

Set 3 — cell line: yeast with cyclin E2-Cln2 chimera; effect on: cell growth; mode: binder; technique: competitive growth deep sequencing; molecule type: peptide; tested at: concentration not given; setting: peptide tiling library; direction: direction not given; quantity: growth enrichment score
RRVLCFDS: 1.38
PLRKAKRARLCSSSSS: 0.362
SCCKRKLVVGNGPEGP: 0.26
DSDSDSEGGAAGGEAD: 1.33
SSEVARHLLFQSHM: -0.118
DTERAHSTLDEDLERW: 1.04
RKLHFEDEVT: 0.603
TARRIFQEPTEPKTKA: 0.976
IVLICAKRSLCAAFSV: 0.296
IPDRSTKPVVFSPT: -0.527
ESSQLTVQAEFDMSAI: 0.127
VLLKRLQDVVSERANH: 0.181
EPRNLLSLFEDTLDPT: 0.168
ALTMEALEDPSPELME: 1.2
FREFEVEKQTAEETGL: 1.22
PARRRLRLSVDEVSSP: 0.0309
NARRSLNFGGSTGT: 0.658
LRRQLSFSED: 0.292
KPITLDTTDFQESFVT: 0.513
PAKRRLELGE: 1.15
SAVPLILPQAPSGPSY: 1.38
KRCATPVIIDEILPSK: 0.336
GQLVIPLDELTLDTSF: 0.664
AIRKMREDRWAVIAKM: 1.19

Set 4 — technique: protein binding microarray; molecule type: double-stranded DNA, one strand shown; matrix: in vitro; tested at: not given; baseline: not given; direction: higher = stronger binding; quantity: E-score
Target: Histone acetyltransferase KAT6A, winged helix 2, GST fusion (KAT6A, Homo sapiens, UniProt Q92794, residues 85-181)
Setting: 8-mer, flanks averaged, mean of 2 arrays, mostly near background
Construct (chain): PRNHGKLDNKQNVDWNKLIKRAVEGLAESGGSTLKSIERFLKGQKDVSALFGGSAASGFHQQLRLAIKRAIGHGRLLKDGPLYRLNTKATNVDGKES
ACGGCGTG: -0.0116
TTCCCCAA: -0.036
ATCCAGGA: 0.0124
GGCGCATA: -0.0716
AAAGTTCG: 0.125
CTTTTGCC: 0.0732
ATCTCGTG: -0.0719
AGCGTACC: -0.0138
AGCGTGTC: -0.0309
CGACTCGA: -0.013
CGAGTCGA: 0.0716
AAGGGCGT: 0.0814
GCGTTTCA: 0.0396
ACCATTTC: -0.0218
CGGGACAC: 0.0338
CATTGGGG: -0.154
GTCTATAA: -0.0311

Set 5 — technique: protein-binding microarray; molecule type: double-stranded DNA, one strand shown; matrix: in vitro; tested at: 0.8 µM; setting: whole 60-bp probe, no competitor; direction: higher = stronger binding; quantity: fluorescence intensity; all sequences stand within: … GTCTTGATTCGCTTGACGCTGCTG
Target: Centromere-binding protein 1, full length, N-terminal tag (CBF1, Saccharomyces cerevisiae, UniProt P17106, residues 1-351)
UniProt P17106, sequence (whole entry, looked up): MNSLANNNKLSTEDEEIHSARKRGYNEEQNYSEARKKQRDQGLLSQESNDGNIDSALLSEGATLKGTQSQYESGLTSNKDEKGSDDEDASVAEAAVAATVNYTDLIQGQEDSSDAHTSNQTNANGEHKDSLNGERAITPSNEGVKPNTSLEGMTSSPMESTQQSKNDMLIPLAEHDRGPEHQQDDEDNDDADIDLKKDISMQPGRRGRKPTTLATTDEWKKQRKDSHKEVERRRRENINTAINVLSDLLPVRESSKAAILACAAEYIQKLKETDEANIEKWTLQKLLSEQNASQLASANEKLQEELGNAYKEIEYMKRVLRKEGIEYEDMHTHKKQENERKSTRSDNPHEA
GAATTTGATCTTCAACACGTCACAGAACTGGTTTAG: 540 a.u.
GAATTATGAGCTACCCTCGTGGCCTGAAAGATGTAG: 566 a.u.
CCTAACTACTATAGTGATGACATATAGCTTCGTACA: 558 a.u.
TGTACGAAGCTATGTCATGATCATATAGTAGTTAGG: 573 a.u.
TGTACGAAGCTATTTCATGTGTGTATAGTAGTTAGG: 540 a.u.
GAAACATGCTATCGTGTCATCATTTCGTGAACTTAG: 569 a.u.
GAACCGAATTGTAATCTCGTGAAATACAAAAGGTAG: 774 a.u.
CTACGATATCTTTATCAGGTGATTCTTACGCGCTTC: 3060 a.u.
TGTACGAAGCTATAGATCACCAGTATAGTAGTTAGG: 548 a.u.
CTAAATATGGAATGTGTCATGAATACTATCAGCTTC: 528 a.u.
TGTACGAAGCTATATGTGGCGCTTATAGTAGTTAGG: 461 a.u.
GAAAGACGTGATTCGGGCGTGATTAATATTCCTTAG: 746 a.u.
CTAAATGGTGTCATTCACGTAAAAATGAACGAGTTC: 539 a.u.
CTATATTGGCTAGCGGTCGTGACACTAATATGTTTC: 744 a.u.
GAAGCGTAGGAAACGCATGTGGTAGCTCGTTTCTAG: 533 a.u.
CTACGCGCAGAAGTGTTGGTGATGGTGTCCAGGTTC: 544 a.u.
TGTACGAAGCTATATGCCGTGGCTATAGTAGTTAGG: 487 a.u.
GAATTTTTATAATATGGTGACATTAAATTAATATAG: 658 a.u.
CTAGAAGGAGCGGGTCTGGTGAATAGTGTAAGCTTC: 519 a.u.

Repeated from above (set 5):
GAAAGACGTGATTCGGGCGTGATTAATATTCCTTAG: 746 a.u.
TGTACGAAGCTATATGTGGCGCTTATAGTAGTTAGG: 461 a.u.
GAATTTTTATAATATGGTGACATTAAATTAATATAG: 658 a.u.
CTACGATATCTTTATCAGGTGATTCTTACGCGCTTC: 3060 a.u.
CTACGCGCAGAAGTGTTGGTGATGGTGTCCAGGTTC: 544 a.u.
TGTACGAAGCTATATGCCGTGGCTATAGTAGTTAGG: 487 a.u.
GAATTTGATCTTCAACACGTCACAGAACTGGTTTAG: 540 a.u.
GAACCGAATTGTAATCTCGTGAAATACAAAAGGTAG: 774 a.u.
